Experimental data pooled from the literature.
± gives the spread as reported.
B1: human RAB8A; sequence looked up; chain MAKTYDYLFKLLLIGDSGVGKTCVLFRFSEDAFNSTFISTIGIDFKIRTIELDGKRIKLQIWDTAGQERFRTITTAYYRGAMGIMLVYDITNEKSFDNIRNWIRNIEEHASADVEKMILGNKCDVNDKRQVSKERGEKLALDYGIKFMETSAKANINVENAFFTLARDIKAKMDKKLEGNSPQGSNQGVKITPDQQKRSSFFRC
Chain of UniProt P00760 (whole entry, looked up): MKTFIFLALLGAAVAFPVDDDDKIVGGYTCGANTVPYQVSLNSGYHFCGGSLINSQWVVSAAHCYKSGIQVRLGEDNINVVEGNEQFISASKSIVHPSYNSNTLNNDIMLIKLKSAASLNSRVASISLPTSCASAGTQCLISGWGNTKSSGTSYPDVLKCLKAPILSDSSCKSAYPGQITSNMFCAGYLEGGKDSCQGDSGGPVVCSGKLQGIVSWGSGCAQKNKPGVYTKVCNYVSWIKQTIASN
Chain of UniProt P05177 (whole entry, looked up): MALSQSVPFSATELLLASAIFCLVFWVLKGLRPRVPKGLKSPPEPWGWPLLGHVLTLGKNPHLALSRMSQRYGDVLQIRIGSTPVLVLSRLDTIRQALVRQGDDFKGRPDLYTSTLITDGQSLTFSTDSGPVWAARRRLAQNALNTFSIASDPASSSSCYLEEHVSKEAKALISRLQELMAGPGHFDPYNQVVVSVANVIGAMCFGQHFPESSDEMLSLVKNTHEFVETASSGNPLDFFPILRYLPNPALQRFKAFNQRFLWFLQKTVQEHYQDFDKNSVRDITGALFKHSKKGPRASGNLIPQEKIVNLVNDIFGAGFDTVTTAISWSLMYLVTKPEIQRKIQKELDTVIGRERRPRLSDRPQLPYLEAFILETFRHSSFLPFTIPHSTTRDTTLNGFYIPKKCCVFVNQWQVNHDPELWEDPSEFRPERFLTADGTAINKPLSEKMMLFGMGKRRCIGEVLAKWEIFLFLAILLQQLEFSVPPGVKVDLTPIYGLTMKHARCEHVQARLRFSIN
Chain of UniProt Q12809 (whole entry, looked up): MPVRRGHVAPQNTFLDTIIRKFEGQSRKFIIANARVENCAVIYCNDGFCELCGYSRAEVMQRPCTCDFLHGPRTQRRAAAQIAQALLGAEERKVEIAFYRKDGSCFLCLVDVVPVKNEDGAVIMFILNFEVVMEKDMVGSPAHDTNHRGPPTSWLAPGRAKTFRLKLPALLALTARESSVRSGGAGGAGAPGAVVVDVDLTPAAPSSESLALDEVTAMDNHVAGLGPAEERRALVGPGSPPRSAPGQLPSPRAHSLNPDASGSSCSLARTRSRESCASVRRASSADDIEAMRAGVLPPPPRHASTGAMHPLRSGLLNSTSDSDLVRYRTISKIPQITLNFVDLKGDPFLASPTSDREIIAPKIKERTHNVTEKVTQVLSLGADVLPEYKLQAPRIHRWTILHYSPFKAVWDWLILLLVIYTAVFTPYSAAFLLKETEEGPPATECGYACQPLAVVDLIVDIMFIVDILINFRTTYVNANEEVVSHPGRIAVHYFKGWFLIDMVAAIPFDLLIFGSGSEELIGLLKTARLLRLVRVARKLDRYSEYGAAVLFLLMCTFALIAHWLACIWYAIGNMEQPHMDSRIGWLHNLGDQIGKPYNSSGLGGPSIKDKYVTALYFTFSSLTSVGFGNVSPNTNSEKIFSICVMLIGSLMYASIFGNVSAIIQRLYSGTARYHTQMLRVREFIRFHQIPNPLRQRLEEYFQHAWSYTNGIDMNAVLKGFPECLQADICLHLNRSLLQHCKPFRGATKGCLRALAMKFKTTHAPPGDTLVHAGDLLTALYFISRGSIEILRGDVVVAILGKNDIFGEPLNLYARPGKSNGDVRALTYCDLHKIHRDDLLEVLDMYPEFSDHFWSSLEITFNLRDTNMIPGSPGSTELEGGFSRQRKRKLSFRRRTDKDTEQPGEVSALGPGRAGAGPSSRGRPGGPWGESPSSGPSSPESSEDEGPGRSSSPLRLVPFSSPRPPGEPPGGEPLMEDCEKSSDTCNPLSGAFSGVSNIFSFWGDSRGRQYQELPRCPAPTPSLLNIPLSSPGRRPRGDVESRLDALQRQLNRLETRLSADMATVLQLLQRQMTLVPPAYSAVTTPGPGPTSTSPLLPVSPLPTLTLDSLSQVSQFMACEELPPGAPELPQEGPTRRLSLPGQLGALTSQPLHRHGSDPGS

CTOP
retention time (RP-HPLC; HALO Peptide ES-C18 column; 25 µM, formic acid/acetonitrile, 10 min gradient): 3.99 min

Pexiganan
incubation time to control sliding time (Serine protease 1 (PRSS1, Bos taurus, UniProt P00760); LC-SLIPS; 0.1 mg/mL, 37 °C, bovine trypsin, with: 25 12.5 ng/mL trypsin): 2 to 4 h

Ivermectin
TC50 (Vero; Alamar Blue; 96 h): 1.6 µM

caspofungin
aspartate aminotransferase (adult ICU patients, mITT, serum; dose not given, day 4): 29.6 U/L

colloidal bismuth subcitrate
highest non-toxic concentration (HeLa; cell viability, CellTiter-Glo; 24 h, 37 °C, 10% FBS): ≤ 50 µM

B1 (human RAB8A)
log2 fold change (CYB5R4 knockout human cells; PP6 interaction, 3xFLAG-PP6C IP-MS; concentration not given; relative to: CYB5R4 KO over parental): -0.11

Teicoplanin
recovery (stock solution; 5 months, -40 °C): 107%

Polymyxin B
log2 fold change (untargeted LC-MS metabolomics, refers to: L-cysteine; Sprague-Dawley rat, right cerebral cortex; intracerebroventricular, 0.75 mg/kg, 1 h; relative to: NaCl control): -5.7

human filamin A
log2 fold change (PP6C (human); co-immunoprecipitation, IP-MS; CYB5R4 knockout cells; concentration not given; relative to: CYB5R4 knockout over parental): -0.11

FNA / CGLSGLGVA-NH2 ([18F]FNA-labelled, C-amide)
tissue uptake (gamma counting; peptide, glioblastoma mice, femur (bone and marrow); 60 min, with: CooP blocking, 500-fold excess): 0.41 %ID/g

methyl-β-cyclodextrin
half-activation voltage (Voltage-gated inwardly rectifying potassium channel KCNH2 (KCNH2, Homo sapiens, UniProt Q12809); steady-state activation, whole-cell patch clamp; concentration not given): -30 ± 2.2 mV

alpinetin
remaining activity (Cytochrome P450 1A2 (CYP1A2, Homo sapiens, UniProt P05177); LC-MS/MS; human liver microsomes; 10 µM, with: phenacetin): 17.5 ± 2.01%

For quick reference, copied from above:
human filamin A
log2 fold change (PP6C (human); co-immunoprecipitation, IP-MS; CYB5R4 knockout cells; concentration not given; relative to: CYB5R4 knockout over parental): -0.11
